Measurements from different studies.
Each line is one published result; not all experiments were run side by side. Values joined by “and” are separate records of one study, mostly repeats; a detail may differ. ± marks the error that the study gave.

SMILES | assay | system | setting | how to read | endpoint | result
O=C(O)CC[C@H](NC(=O)N[C@@H](CCCCNC(=O)CCCCC[C@H](NC(=O)CCS[C@@H]1O[C@H](CO)[C@H](O)[C@H](O)[C@H]1O)C(=O)NCCCC[C@@H](NC(=O)[C@@H](Cc1ccccc1)NC(=O)[C@@H](Cc1ccc(O)c(I)c1)NC(=O)CCC(C(=O)O)N1CCN(CC(=O)O)CCN(CC(=O)O)CCN(CC(=O)O)CC1)C(=O)O)C(=O)O)C(=O)O (stereo partly shown) [gallium-68 labelled] |  | CB-17 SCID mice | 3 h post injection, biodistribution |  | tumour uptake | 3.85 ± 0.54 %ID/g
N=C(N)NCCC[C@@H]1NC(=O)[C@H](CCCCNC(=S)Nc2ccc(CC3CN(CC(=O)O)CCN(CC(=O)O)CCN(CC(=O)O)CCN3CC(=O)O)cc2)NC(=O)[C@@H](Cc2ccc(O)cc2)NC(=O)[C@H](CC(=O)O)NC(=O)CNC1=O (stereo partly shown) [actinium-225 labelled] |  | U-87 MG tumour-bearing mice | 4 h |  | tumour to blood ratio | 95
CSCC[C@H](NC(=O)[C@H](CC(C)C)NC(=O)[C@H](Cc1c[nH]cn1)NC(=O)CNC(=O)[C@@H](NC(=O)[C@H](C)NC(=O)[C@H](Cc1c[nH]c2ccccc12)NC(=O)[C@H](CCC(N)=O)NC(=O)CCOCCOCCOCCOCCNC(=O)CN1CCN(CC(=O)O)CCN(CC(=O)O)CCN(CC(=O)O)CC1)C(C)C)C(N)=O [indium-111 labelled] | radio-HPLC | Swiss nu/nu mice, blood | intravenous, 1 nmol, 15 min |  | intact peptide | 1.4% and 2.3%
N=C(N)NCCC[C@@H]1NC(=O)[C@H](CCCCNC(=O)CNC(=O)CNC(=O)CNC(=O)CC[C@H](NC(=O)CNC(=O)CNC(=O)CNC(=O)CC[C@H](NC(=O)CN2CCN(CC(=O)O)CCN(CC(=O)O)CCN(CC(=O)O)CC2)C(=O)NCC(=O)NCC(=O)NCC(=O)N[C@@H](CCC(=O)NCC(=O)NCC(=O)NCC(=O)NCCCC[C@@H]2NC(=O)[C@@H](Cc3ccccc3)NC(=O)[C@H](CC(=O)O)NC(=O)CNC(=O)[C@H](CCCNC(=N)N)NC2=O)C(=O)NCC(=O)NCC(=O)NCC(=O)NCCCC[C@@H]2NC(=O)[C@@H](Cc3ccccc3)NC(=O)[C@H](CC(=O)O)NC(=O)CNC(=O)[C@H](CCCNC(=N)N)NC2=O)C(=O)NCC(=O)NCC(=O)NCC(=O)NCCCC[C@@H]2NC(=O)[C@@H](Cc3ccccc3)NC(=O)[C@H](CC(=O)O)NC(=O)CNC(=O)[C@H](CCCNC(=N)N)NC2=O)NC(=O)[C@@H](Cc2ccccc2)NC(=O)[C@H](CC(=O)O)NC(=O)CNC1=O [indium-111 labelled] |  | female athymic nu/nu mice, muscle | intravenous, 111 kBq, 1 h |  | tissue uptake | 1.14 ± 0.23 %ID/g
CC(C)C[C@H](NC(=O)C[C@H](O)[C@H](CC(C)C)NC(=O)[C@H](Cc1c[nH]cn1)NC(=O)CNC(=O)[C@@H](NC(=O)[C@H](C)NC(=O)[C@H](Cc1c[nH]c2ccccc12)NC(=O)[C@H](CCC(N)=O)NC(=O)[C@@H](Cc1ccccc1)NC(=O)CCOCCOCCOCCNC(=O)CN1CCN(CC(=O)O)CCN(CC(=O)O)CC1)C(C)C)C(N)=O [gallium-68 labelled] | microPET imaging | nude mouse PC-3 xenograft, PC-3 tumour | intravenous, 3.7 MBq, 15 min |  | mean tumour uptake | 2.99 ± 0.44 %ID/g
CSCC[C@H](NC(=O)[C@H](CC(C)C)NC(=O)[C@H](Cc1c[nH]cn1)NC(=O)CNC(=O)[C@@H](NC(=O)[C@H](C)NC(=O)[C@H](Cc1c[nH]c2ccccc12)NC(=O)[C@H](CCC(N)=O)NC(=O)CNC(=O)CNC(=O)CNC(=O)CCCCCN1C(=CC=C2CCCC(C=CC3=[N+](CCCCS(=O)(=O)[O-])c4ccc(S(=O)(=O)O)cc4C3(C)C)=C2Oc2ccc(S(=O)(=O)O)cc2)C(C)(C)c2cc(S(=O)(=O)O)ccc21)C(C)C)C(N)=O |  | female BALB/c mice | intravenous |  | half-life | 1.7 h
CCCC[C@H](NC(=O)[C@H](CC(N)=O)NC(=O)[C@H](CCCNC(=N)N)NC(=O)[C@@H](NC(=O)CNC(=O)[C@H](C)NC(=O)[C@H](CCCCNC(=O)CCC(=O)O[C@@H](C(=O)O[C@H]1C[C@@]2(O)[C@@H](OC(=O)c3ccccc3)[C@@H]3[C@]4(OC(C)=O)CO[C@@H]4C[C@H](O)[C@@]3(C)C(=O)[C@H](O)C(=C1C)C2(C)C)[C@@H](NC(=O)OC(C)(C)C)c1ccccc1)NC(=O)[C@H](C)NC(=O)[C@H](CCCNC(=N)N)NC(=O)[C@@H](NC(=O)CNC(C)=O)C(C)C)C(C)C)C(=O)N[C@@H](Cc1ccccc1)C(=O)N[C@@H](CCCCNC(=O)CCC(=O)O[C@@H](C(=O)O[C@H]1C[C@@]2(O)[C@@H](OC(=O)c3ccccc3)[C@@H]3[C@]4(OC(C)=O)CO[C@@H]4C[C@H](O)[C@@]3(C)C(=O)[C@H](O)C(=C1C)C2(C)C)[C@@H](NC(=O)OC(C)(C)C)c1ccccc1)C(=O)N[C@@H](CO)C(=O)N[C@@H](CCC(=O)O)C(=O)N[C@@H](CO)C(=O)N[C@@H](Cc1ccc(O)cc1)C(=O)O |  | CD-1 mouse, plasma | intravenous, 50 mg/kg, single dose |  | half-life | 1.44 h
CC(C)[C@H](NC(=O)[C@@H](NC(=O)COCCOCCNC(=O)COCCOCCNC(=O)CN1CCN(CC(=O)O)CCN(CC(=O)O)CCN(CC(=O)O)CC1)[C@@H](C)O)C(=O)N[C@@H](CCCNC(=N)N)C(=O)N[C@H](C(=O)N[C@@H](CO)C(=O)N[C@@H](C)C(=O)N[C@@H](CC(=O)O)C(=O)O)[C@@H](C)O [copper-64 labelled] | PET | male nude mice, LNCaP xenograft | iv, 22 h |  | tumour tracer uptake | 3210 ± 1510 Bq/mL
N=C(N)NCCC[C@@H]1NC(=O)[C@H](CCCCNC(=O)CNC(=O)CNC(=O)CNC(=O)CC[C@H](NC(=O)CNC(=O)CNC(=O)CNC(=O)CN2CCN(CC(=O)O)CCN(CC(=O)O)CCN(CC(=O)O)CC2)C(=O)NCC(=O)NCC(=O)NCC(=O)NCCCC[C@@H]2NC(=O)[C@@H](Cc3ccccc3)NC(=O)[C@H](CC(=O)O)NC(=O)CNC(=O)[C@H](CCCNC(=N)N)NC2=O)NC(=O)[C@@H](Cc2ccccc2)NC(=O)[C@H](CC(=O)O)NC(=O)CNC1=O [indium-111 labelled] |  | female athymic nu/nu mice, intestine | intravenous, 0.5 h |  | tissue uptake | 4.83 ± 1.15 %ID/g
CC(C)CC(CC(C)C)NC(=O)[C@H](Cc1cnc[nH]1)NC(=O)CNC(=O)[C@@H](NC(=O)[C@H](C)NC(=O)[C@H](Cc1c[nH]c2ccccc12)NC(=O)[C@H](CCC(N)=O)NC(=O)[C@@H](Cc1ccccc1)NC(=O)COCC(=O)Nc1ccc(CNC(=O)CN2CCN(CC(=O)O)CCN(CC(=O)O)CCN(CC(=O)O)CC2)cc1)C(C)C [lutetium-177 labelled] | SPECT/CT | NMRI-Foxn1 nu/nu mice, T47D xenograft | 4 MBq, 24 h post-injection, with: doxorubicin, two cycles | relative to: placebo | tumour uptake per volume | no effect
CCCC[C@H](NC(=O)CCCCCCCNC(=O)CN1CCN(CC(=O)O)CCN(CC(=O)O)CC1)C(=O)N[C@H]1CC(=O)NCCCC[C@@H](C(N)=O)NC(=O)[C@H](Cc2c[nH]c3ccccc23)NC(=O)[C@H](CCCNC(=N)N)NC(=O)[C@@H](Cc2ccccc2)NC(=O)[C@H](Cc2c[nH]cn2)NC1=O [copper-64 labelled] |  | C57 mice, liver | intravenous, 0.37 MBq, 24 h |  | tissue uptake | 0.73 ± 0.01 %ID/g
N=C(N)NCCC[C@@H]1NC(=O)[C@H](CCCCNC(=O)CC[C@H](NC(=O)CC[C@H](NC(=O)CN2CCN(CC(=O)O)CCN(CC(=O)O)CCN(CC(=O)O)CC2)C(=O)N[C@@H](CCC(=O)NCCCC[C@@H]2NC(=O)[C@@H](Cc3ccccc3)NC(=O)[C@H](CC(=O)O)NC(=O)CNC(=O)[C@H](CCCNC(=N)N)NC2=O)C(=O)NCCCC[C@@H]2NC(=O)[C@@H](Cc3ccccc3)NC(=O)[C@H](CC(=O)O)NC(=O)CNC(=O)[C@H](CCCNC(=N)N)NC2=O)C(=O)NCCCC[C@@H]2NC(=O)[C@@H](Cc3ccccc3)NC(=O)[C@H](CC(=O)O)NC(=O)CNC(=O)[C@H](CCCNC(=N)N)NC2=O)NC(=O)[C@@H](Cc2ccccc2)NC(=O)[C@H](CC(=O)O)NC(=O)CNC1=O [indium-111 labelled] |  | female athymic nu/nu mice, kidney | intravenous, 4 h |  | tissue uptake | 5.83 ± 0.7 %ID/g
CCCC[C@H](NC(=O)CNC(=O)CNC(=O)CN1CCN(CC(=O)O)CCN(CC(=O)O)CCN(CC(=O)O)CC1)C(=O)N[C@H]1CC(=O)NCCCC[C@@H](C(N)=O)NC(=O)[C@H](Cc2c[nH]c3ccccc23)NC(=O)[C@H](CCCNC(=N)N)NC(=O)[C@@H](Cc2ccccc2)NC(=O)[C@H](Cc2c[nH]cn2)NC1=O [lutetium-177 labelled] |  | C57 mouse, female, bone | intravenous, 0.037 MBq, 0.5 h |  | tissue uptake | 0.95 ± 0.33 %ID/g

For quick reference, copied from above:
SMILES | assay | system | setting | how to read | endpoint | result
CC(C)[C@H](NC(=O)[C@@H](NC(=O)COCCOCCNC(=O)COCCOCCNC(=O)CN1CCN(CC(=O)O)CCN(CC(=O)O)CCN(CC(=O)O)CC1)[C@@H](C)O)C(=O)N[C@@H](CCCNC(=N)N)C(=O)N[C@H](C(=O)N[C@@H](CO)C(=O)N[C@@H](C)C(=O)N[C@@H](CC(=O)O)C(=O)O)[C@@H](C)O [copper-64 labelled] | PET | male nude mice, LNCaP xenograft | iv, 22 h |  | tumour tracer uptake | 3210 ± 1510 Bq/mL
